Published values collected from several papers.
Numbered parts are unrelated; each lists some results of a single study. Values joined by “and” are separate records of one study, mostly repeats; a detail may differ.

Study 1 — organism: Arabidopsis thaliana; strain: Col-0; measurement: hypocotyl length
SMILES: O=C(O)C1(O)Oc2cc(Br)ccc2N(Cc2ccccc2)C1=O (stereo not drawn)
100 µg/mL, seed germination, repetition mean: 0.824 cm
12.5 µg/mL, seed germination, repetition mean: 1.93 cm
6.25 µg/mL, seed germination, single repetition: 2.05 cm and 2.06 cm and 2.04 cm and 2 cm
50 µg/mL, seed germination, single repetition: 1.35 cm and 1.36 cm and 1.39 cm and 1.37 cm and 1.34 cm
25 µg/mL, seed germination, single repetition: 1.67 cm and 1.65 cm and 1.79 cm and 1.71 cm and 1.68 cm
50 µg/mL, seed germination, repetition mean: 1.35 cm
6.25 µg/mL, seed germination, repetition mean: 2.03 cm
25 µg/mL, seed germination, repetition mean: 1.71 cm
100 µg/mL, seed germination, single repetition: 0.85 cm and 0.79 cm and 0.81 cm and 0.82 cm

Study 2 — cell line: HCC1569; technique: in-cell western; refers to: CDK1 phospho-Thr14; measurement: pCDK1 (Thr14) level
SMILES: Cc1ccc(O)c(C)c1-c1cnc2[nH]c(-c3cnc(N4CCC(CN5CCN(c6c(F)cc(NC7CCC(=O)NC7=O)cc6F)CC5)CC4)nc3)cc2c1C#N (racemic)
0.152 nM: 5.8% and 6%
1000 nM: 102%
4.12 nM: 22.3% and 12.3%
333.33 nM: 81.2% and 84.4%
37.04 nM: 34.3% and 38.9%
12.35 nM: 35.2% and 40.6%
111.11 nM: 57.1% and 55.8%

Study 3 — read-out: KRAS-RAF interaction; mode: inhibitor; technique: TR-FRET; with: SOS-mediated nucleotide exchange; measurement: inhibition
Structure (SMILES): CCN1CCN(Cc2ccc(COc3c(-c4c(C)c(F)cc5[nH]ncc45)c(C4CC4)cc4c(N5C[C@@H]6C[C@H]5CN6)nc(OC5CCOCC5)nc34)cc2)C(=O)C1
KRAS G12D with RAF: GTPase KRas, with RAF (KRAS, Homo sapiens, UniProt P01116, G12D)
KRAS with RAF: GTPase KRas, with RAF (KRAS, Homo sapiens, UniProt P01116)
KRAS G12D with RAF; 300 nM: 97.8%
KRAS G12D with RAF; 10 µM: 100% and 102%
KRAS with RAF; 30 nM: -2.28% and -1.3%
KRAS G12D with RAF; 100 nM: 71.7% and 71.3%
KRAS G12D with RAF; 3 µM: 101%
KRAS with RAF; 1 µM: 92.8% and 92.7%
KRAS with RAF; 10 nM: -0.809% and -4.49%

Mixed results
Cc1nc(C)c(C=[N+]([O-])C(C)(C)C)nc1C  striatal dopamine content (HPLC-ECD; MPTP mouse model, striatum; 90 mg/kg): 5.87 ng/mg tissue and 5.03 ng/mg tissue and 4.8 ng/mg tissue and 5.6 ng/mg tissue and 7.12 ng/mg tissue and 4.82 ng/mg tissue and 5.64 ng/mg tissue

Excerpt of the above (study 3):
KRAS G12D with RAF; 10 µM: 100% and 102%
